Measurements of several laboratories.
Parts stem from different laboratories: compare values within a part only. Values joined by “and” are separate records of one study, mostly repeats; a detail may differ.
UniProt Q9NQU5, sequence (whole entry, looked up): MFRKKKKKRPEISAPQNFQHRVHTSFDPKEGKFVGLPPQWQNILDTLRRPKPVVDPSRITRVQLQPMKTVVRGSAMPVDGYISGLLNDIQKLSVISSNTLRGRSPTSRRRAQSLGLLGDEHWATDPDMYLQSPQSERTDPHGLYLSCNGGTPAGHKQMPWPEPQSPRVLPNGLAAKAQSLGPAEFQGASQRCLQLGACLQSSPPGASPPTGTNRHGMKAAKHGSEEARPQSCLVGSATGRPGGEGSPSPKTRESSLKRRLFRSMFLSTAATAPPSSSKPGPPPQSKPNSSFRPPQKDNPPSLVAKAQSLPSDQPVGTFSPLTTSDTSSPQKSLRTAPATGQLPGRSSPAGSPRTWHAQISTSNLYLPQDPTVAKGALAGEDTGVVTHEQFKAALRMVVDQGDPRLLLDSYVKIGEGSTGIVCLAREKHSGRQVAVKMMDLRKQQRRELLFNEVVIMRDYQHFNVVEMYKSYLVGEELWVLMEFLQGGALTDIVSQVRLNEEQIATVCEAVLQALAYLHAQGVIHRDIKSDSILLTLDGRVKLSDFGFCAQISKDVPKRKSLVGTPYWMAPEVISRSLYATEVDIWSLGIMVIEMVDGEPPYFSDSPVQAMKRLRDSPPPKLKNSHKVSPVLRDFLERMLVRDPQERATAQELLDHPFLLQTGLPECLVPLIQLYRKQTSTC
UniProt Q8N5S9, sequence (whole entry, looked up): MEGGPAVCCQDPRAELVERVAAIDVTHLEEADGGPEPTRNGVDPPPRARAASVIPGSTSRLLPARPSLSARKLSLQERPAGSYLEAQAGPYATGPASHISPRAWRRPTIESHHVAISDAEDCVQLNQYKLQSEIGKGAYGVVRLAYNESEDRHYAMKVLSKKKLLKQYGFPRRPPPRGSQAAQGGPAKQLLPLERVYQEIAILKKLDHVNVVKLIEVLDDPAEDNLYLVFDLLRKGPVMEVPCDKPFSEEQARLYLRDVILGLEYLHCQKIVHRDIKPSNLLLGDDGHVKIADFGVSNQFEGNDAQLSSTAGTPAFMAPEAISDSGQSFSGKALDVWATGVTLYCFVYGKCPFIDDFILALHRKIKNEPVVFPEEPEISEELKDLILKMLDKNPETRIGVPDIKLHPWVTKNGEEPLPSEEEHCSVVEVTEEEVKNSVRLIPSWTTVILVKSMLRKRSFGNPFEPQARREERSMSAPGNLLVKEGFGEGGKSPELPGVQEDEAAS
UniProt Q9HBY8, sequence (whole entry, looked up): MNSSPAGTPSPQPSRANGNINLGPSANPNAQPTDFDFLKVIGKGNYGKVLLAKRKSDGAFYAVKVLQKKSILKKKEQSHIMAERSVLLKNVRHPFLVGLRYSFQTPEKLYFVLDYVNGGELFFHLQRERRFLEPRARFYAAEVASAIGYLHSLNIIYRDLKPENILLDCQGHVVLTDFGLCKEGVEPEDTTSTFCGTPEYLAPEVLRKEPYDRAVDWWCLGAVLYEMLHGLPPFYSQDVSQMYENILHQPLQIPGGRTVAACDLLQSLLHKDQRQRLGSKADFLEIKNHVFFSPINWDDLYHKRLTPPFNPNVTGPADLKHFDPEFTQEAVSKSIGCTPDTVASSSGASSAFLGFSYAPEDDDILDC
UniProt Q9H0K1, sequence (whole entry, looked up): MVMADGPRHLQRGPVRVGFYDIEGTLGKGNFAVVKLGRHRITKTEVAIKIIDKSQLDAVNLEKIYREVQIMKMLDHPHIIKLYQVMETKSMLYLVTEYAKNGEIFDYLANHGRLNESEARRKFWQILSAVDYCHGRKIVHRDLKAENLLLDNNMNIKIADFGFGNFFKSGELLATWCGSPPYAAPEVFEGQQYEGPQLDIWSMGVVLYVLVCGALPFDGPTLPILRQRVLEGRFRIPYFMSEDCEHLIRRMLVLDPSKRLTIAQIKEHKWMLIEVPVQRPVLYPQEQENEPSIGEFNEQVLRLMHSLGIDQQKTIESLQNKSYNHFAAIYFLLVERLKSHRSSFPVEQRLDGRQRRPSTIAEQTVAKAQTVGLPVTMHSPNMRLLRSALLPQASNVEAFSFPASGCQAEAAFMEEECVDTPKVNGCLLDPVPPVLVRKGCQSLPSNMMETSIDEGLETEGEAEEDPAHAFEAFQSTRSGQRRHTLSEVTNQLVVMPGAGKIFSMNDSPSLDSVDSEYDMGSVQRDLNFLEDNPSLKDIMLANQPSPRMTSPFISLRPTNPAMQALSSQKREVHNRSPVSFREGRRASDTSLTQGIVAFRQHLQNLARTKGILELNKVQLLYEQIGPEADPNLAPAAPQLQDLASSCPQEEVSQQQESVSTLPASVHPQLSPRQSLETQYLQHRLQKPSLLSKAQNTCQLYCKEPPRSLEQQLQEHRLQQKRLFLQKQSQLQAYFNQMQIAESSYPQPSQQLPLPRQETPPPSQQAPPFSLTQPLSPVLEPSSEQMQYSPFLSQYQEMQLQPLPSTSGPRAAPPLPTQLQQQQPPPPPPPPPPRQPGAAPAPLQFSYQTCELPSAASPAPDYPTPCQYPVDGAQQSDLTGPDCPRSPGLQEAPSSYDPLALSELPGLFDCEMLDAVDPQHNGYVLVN
UniProt Q04759, sequence (whole entry, looked up): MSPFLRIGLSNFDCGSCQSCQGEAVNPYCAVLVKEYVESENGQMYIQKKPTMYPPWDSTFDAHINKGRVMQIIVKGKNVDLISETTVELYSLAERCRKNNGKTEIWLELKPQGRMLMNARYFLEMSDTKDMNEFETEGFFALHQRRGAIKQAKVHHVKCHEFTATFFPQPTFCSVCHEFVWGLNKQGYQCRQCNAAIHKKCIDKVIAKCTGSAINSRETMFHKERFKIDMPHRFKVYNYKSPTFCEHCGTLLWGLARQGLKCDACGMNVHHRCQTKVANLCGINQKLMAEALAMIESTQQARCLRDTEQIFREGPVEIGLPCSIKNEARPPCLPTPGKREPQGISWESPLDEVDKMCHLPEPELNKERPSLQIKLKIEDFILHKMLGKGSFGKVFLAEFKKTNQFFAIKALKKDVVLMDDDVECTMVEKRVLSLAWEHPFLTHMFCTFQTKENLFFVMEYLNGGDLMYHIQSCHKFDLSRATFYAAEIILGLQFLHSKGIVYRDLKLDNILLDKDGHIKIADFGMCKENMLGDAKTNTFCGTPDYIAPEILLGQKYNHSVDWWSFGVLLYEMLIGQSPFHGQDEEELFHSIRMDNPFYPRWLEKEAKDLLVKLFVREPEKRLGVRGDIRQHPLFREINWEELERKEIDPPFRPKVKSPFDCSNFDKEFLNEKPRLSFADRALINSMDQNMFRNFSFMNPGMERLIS
UniProt P08913, sequence (whole entry, looked up): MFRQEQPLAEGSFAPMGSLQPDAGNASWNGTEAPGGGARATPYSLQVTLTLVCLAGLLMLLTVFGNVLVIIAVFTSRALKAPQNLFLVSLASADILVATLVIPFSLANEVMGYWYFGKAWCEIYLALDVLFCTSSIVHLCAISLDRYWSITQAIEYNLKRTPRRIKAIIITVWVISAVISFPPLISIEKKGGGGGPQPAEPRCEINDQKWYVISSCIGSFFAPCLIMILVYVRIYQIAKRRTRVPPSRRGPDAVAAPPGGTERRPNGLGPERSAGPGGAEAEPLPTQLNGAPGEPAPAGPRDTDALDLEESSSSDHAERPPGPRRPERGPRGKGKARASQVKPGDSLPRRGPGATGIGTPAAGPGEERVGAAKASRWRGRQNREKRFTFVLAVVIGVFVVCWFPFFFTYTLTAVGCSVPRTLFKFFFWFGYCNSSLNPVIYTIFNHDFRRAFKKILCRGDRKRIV
UniProt Q9UF33, sequence (whole entry, looked up): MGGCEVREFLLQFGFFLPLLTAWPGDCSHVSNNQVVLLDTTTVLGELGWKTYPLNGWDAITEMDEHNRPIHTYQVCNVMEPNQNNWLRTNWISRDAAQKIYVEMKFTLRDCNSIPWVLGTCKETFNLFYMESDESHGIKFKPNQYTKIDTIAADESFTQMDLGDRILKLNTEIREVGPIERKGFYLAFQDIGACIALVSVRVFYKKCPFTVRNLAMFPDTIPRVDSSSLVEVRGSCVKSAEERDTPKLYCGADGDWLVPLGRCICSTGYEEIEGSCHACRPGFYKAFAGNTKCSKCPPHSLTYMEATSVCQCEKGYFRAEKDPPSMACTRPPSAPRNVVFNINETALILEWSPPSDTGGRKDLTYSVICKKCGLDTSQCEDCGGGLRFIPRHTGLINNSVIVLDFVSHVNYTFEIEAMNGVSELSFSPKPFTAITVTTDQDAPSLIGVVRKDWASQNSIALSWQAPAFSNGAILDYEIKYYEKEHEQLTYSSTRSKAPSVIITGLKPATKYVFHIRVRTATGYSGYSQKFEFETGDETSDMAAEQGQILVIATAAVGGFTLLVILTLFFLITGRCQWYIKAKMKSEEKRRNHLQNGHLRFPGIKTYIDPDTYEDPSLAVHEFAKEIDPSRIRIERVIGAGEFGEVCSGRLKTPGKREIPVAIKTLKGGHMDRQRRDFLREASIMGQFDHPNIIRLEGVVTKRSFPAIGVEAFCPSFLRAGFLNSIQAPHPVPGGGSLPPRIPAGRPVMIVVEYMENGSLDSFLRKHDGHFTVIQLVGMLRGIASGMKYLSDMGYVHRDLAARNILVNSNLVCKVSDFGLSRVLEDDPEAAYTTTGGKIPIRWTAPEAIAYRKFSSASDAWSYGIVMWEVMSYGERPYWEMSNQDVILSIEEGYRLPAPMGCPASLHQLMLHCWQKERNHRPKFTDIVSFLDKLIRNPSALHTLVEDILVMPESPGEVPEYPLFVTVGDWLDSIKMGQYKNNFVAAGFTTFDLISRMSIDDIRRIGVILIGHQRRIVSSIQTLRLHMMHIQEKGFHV

Set 1
Compound: CCc1[nH]c(-c2ccc(OC)cc2)nc1-c1ccncc1
Effect on: enzyme activity
Action: inhibitor
Tested at: 0.5 µM
Relative to: control
It gave 104% for remaining activity (EPHA6 (Homo sapiens, UniProt Q9UF33)).
It gave 106% for remaining activity (MAP3K20 (Homo sapiens, UniProt Q9NYL2)).
SGK2 (Homo sapiens, UniProt Q9HBY8) — remaining activity: 103%.
The remaining activity was 122% (CAMKK1 (Homo sapiens, UniProt Q8N5S9)).
The remaining activity was 110% (JAK1 (Homo sapiens, UniProt P23458)).
SRPK1 (Homo sapiens, UniProt Q96SB4) — remaining activity: 106%.
The remaining activity was 107% (PRKCZ (Homo sapiens, UniProt Q05513)).
FLT1 (Homo sapiens, UniProt P17948) — remaining activity: 90.2%.
The remaining activity was 108% (CAMK1 (Homo sapiens, UniProt Q14012)).
CSNK1D (Homo sapiens, UniProt P48730) — remaining activity: 95.1%.
For IGF1R (Homo sapiens, UniProt P08069): remaining activity read 99.5%.
For SIK2 (Homo sapiens, UniProt Q9H0K1): remaining activity read 88.3%.
For PAK6 (Homo sapiens, UniProt Q9NQU5): remaining activity read 102%.
CLK2 (Homo sapiens, UniProt P49760) — remaining activity: 106%.
It gave 99.3% for remaining activity (PAK1 (Homo sapiens, UniProt Q13153)).
TYRO3 (Homo sapiens, UniProt Q06418) — remaining activity: 97.9%.
The remaining activity was 121% (PRKCQ (Homo sapiens, UniProt Q04759)).
For MUSK (Homo sapiens, UniProt O15146): remaining activity read 85.9%.
The remaining activity was 95% (CSNK1E (Homo sapiens, UniProt P49674)).
For EPHA2 (Homo sapiens, UniProt P29317): remaining activity read 102%.
The remaining activity was 93.7% (Cyclin-dependent kinase 2, with cyclin E (CDK2, Homo sapiens, UniProt P24941)).
For RPS6KA3 (Homo sapiens, UniProt P51812): remaining activity read 98.7%.
CLK1 (Homo sapiens, UniProt P49759) — remaining activity: 105%.
For TEC (Homo sapiens, UniProt P42680): remaining activity read 109%.

Set 2
Target: Homeobox protein Hox-B13, full length (HOXB13, Homo sapiens, UniProt Q92826, residues 1-284)
UniProt Q92826, sequence (whole entry, looked up): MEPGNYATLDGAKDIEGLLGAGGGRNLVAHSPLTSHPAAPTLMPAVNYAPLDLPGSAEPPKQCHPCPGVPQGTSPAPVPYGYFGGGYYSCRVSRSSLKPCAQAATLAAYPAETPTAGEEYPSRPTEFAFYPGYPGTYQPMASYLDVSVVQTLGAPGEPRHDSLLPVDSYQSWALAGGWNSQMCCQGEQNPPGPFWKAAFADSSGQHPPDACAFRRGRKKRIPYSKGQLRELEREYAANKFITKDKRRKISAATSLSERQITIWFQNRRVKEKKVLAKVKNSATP
Method: protein-binding microarray
Form: hairpin DNA
Matrix: in vitro
Tested at: not given
Setting: whole hairpin DNA, median over replicate spots
Relative to: not given
Reading: higher = stronger binding
`GAGGCCGTCGTATTGGGGCCTCCTGGCCCCAATACGACGGCCTCACACTC` gave a median fluorescence of 4060 a.u.
`GAGGCCGTTTTCGGAGGGCCTCCTGGCCCTCCGAAAACGGCCTCACACTC (5mC at 32)` gave a median fluorescence of 3930 a.u.
`GAGGCCGTTGTACGAGGGCCTCCTGGCCCTCGTACAACGGCCTCACACTC` has a median fluorescence of 4100 a.u.
For `GAGGCCGTTTTAATGGGGCCTCCTGGCCCCATTAAAACGGCCTCACACTC`, the median fluorescence was 4810 a.u.
`GAGGCCGTTTTACGGGGGCCTCCTGGCCCCCGTAAAACGGCCTCACACTC` gave a median fluorescence of 4670 a.u.
`GAGGCCGTTTTATTCGGGCCTCCTGGCCCGAATAAAACGGCCTCACACTC (5mC at 29)` gave a median fluorescence of 4230 a.u.
`GAGGCCGTTTTATTTGGGCCTCCTGGCCCAAATAAAACGGCCTCACACTC` gave a median fluorescence of 4620 a.u.
With `GAGGCCCGTTTATTGGGGCCTCCTGGCCCCAATAAACGGGCCTCACACTC` the median fluorescence was 4660 a.u.

Set 3
Target: Histone acetyltransferase KAT6A, winged helix 1, GST fusion (KAT6A, Homo sapiens, UniProt Q92794, residues 1-85)
Method: protein binding microarray
Form: double-stranded DNA, one strand shown
Matrix: in vitro
Tested at: not given
Setting: 8-mer, flanks averaged, mean of 2 arrays, mostly near background
Relative to: not given
Reading: higher = stronger binding
Target sequence (chain): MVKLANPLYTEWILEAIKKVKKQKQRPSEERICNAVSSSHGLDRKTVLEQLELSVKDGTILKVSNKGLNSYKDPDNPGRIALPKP
`AAAGATAT` has an E-score of -0.184.
`CATACATG` gave an E-score of -0.0859.
With `ATGACGCG` the E-score was 0.286.
`AGAGAATA` gave an E-score of -0.0251.
The E-score of `AGAGAGGG` is reported as -0.0774.
`ATAAGAGG` has an E-score of -0.0373.
`ACCAACCC` has an E-score of -0.0689.
`CACTCTCC` has an E-score of -0.0814.

Set 4
Target: RNA binding protein fox-1 homolog 2, RRM domain, GST-SBP tag (RBFOX2, Homo sapiens, UniProt O43251-10, residues 100-194)
Method: RNA Bind-n-Seq
Form: RNA
Matrix: in vitro
Tested at: 365 nM
Setting: natural RNA segment, single round, ends assumed
Relative to: no-protein control
Reading: higher = stronger binding
Residues (chain): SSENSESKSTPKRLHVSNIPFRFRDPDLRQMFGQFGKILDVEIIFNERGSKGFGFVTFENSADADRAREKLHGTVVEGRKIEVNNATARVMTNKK
`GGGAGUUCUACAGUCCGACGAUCGAAAACCUGAUUUUCAUCUCGUACUACCAAGCUUUACAACAUUGAAAGUGGCCUAGUAACUCUGAGUAUUUUAAAGAAUGCUUUAUCAUUUUUUAAAGAUGUCAAGAAACUGGAAUUCUCGGGUGCCAA` — result for “RBNS enrichment (R)”: 0.304.
`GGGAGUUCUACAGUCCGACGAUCAGUAAUAACAAUGGGACUUAGAGGAGGUAAACAUAACUUAUGUGCCUCAAACCAGCUAGUCCUGGACAAGAUGUCUCUUCAGUAUCUCUGCUAUUGGGUUCAGAUGUGUCUGGAAUUCUCGGGUGCCAA` — result for “RBNS enrichment (R)”: 0.307.
Under “RBNS enrichment (R)”, `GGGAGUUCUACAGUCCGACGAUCGUGGGCUUGUUAUUGGGAUGAAGACUGCUGGAAGGGACUCCUUGCUGUUUAUCUACUGCUUUGAGCCCUCCUAAGUUAACCUGUGCCUCAUUUGUAAAACCACCAGCAUCUGGAAUUCUCGGGUGCCAA` is recorded as 0.494.
For `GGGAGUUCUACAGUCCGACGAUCUCUCCACAGAAGCAGCUGGAAGAGAACUCGAGGGGCUGUGCUGCAGGCCUCCCCUCGAAAGACACUGGGAGGUCAGCAUGUUCCACAGGUGUUCAGAGGGAGUCUGCUACUGGAAUUCUCGGGUGCCAA`, “RBNS enrichment (R)” read 8.58.
For `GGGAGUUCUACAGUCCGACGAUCCCGGCCUACCCACCCCACUCUACAGCCCCUCCAACCUCAAGGCACUUCGGGGACUCAGACGGGGGAGAUCCGGGCCAGUAGCUCCCAUGCCACCUGACUGACAGACGCCUUGGAAUUCUCGGGUGCCAA`, “RBNS enrichment (R)” read 0.593.
`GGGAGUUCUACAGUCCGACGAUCACCCCUGUGGAGGGGCUGCUGUGGGCCCUGACCUCCAAGCUCCUGCCUCACCGUCUGCCUUGCUCCUCUCUUCCCAAAUCAUCACCGCCAUGGGCCCAGCCCCAAAGGGCUGGAAUUCUCGGGUGCCAA` — result for “RBNS enrichment (R)”: 0.682.
`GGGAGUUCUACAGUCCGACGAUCGAAGUAGUUACCGUACCUUAGGAUCAUUUGUAUGUCUACUUUAUCUUAACAAAGAAAACCUGGUGCUUGCAGUAUAGCUGUAGAAUUUUCUAUGUUCAAGACGUAGCUGCUGGAAUUCUCGGGUGCCAA` — result for “RBNS enrichment (R)”: 0.369.
`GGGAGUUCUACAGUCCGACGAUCAGAAAUAGAGUAGACAGAAUCACACAUCAUGUGGUGGGCAGAUGGAAAUAAGUACCUGUGGUGAACAAGUUUCUACUGUAGUUGGAGAUCAUUAGAAUUGAAUUCAGUUUUGGAAUUCUCGGGUGCCAA` — result for “RBNS enrichment (R)”: 0.941.

Further values, each from its own experiment
`CN(C)C(=O)/C(C#N)=C/c1ccc(-c2nc3cnc4[nH]ccc4c3n2C2CCCCC2)o1` has a viability of 92.9% and 97.5% (normal-adjacent epithelium patient-derived organoids sample E; CellTiter-Glo; 0.1 µM; relative to: DMSO).
`CCCOc1ccc([C@@H]2[C@@H](C(=O)O)[C@H](c3ccc4c(c3)OCO4)CN2CC(=O)Nc2c(CC)cccc2CC)cc1` has a viability of 151% and 118% (normal organoid sample H; CellTiter-Glo; human, normal-adjacent epithelium; 0.1 µM; relative to: DMSO).
`O=C(NNS(=O)(=O)c1ccccc1)c1cc(-c2ccnnc2)ccc1F` has a Ki of greater than 10 µM (ADRA2A (Homo sapiens, UniProt P08913); binding, radioligand binding).

Some of these lines once more (set 4):
`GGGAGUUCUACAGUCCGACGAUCAGAAAUAGAGUAGACAGAAUCACACAUCAUGUGGUGGGCAGAUGGAAAUAAGUACCUGUGGUGAACAAGUUUCUACUGUAGUUGGAGAUCAUUAGAAUUGAAUUCAGUUUUGGAAUUCUCGGGUGCCAA` — result for “RBNS enrichment (R)”: 0.941.
For `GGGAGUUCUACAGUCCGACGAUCCCGGCCUACCCACCCCACUCUACAGCCCCUCCAACCUCAAGGCACUUCGGGGACUCAGACGGGGGAGAUCCGGGCCAGUAGCUCCCAUGCCACCUGACUGACAGACGCCUUGGAAUUCUCGGGUGCCAA`, “RBNS enrichment (R)” read 0.593.
`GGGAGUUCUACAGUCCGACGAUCGAAGUAGUUACCGUACCUUAGGAUCAUUUGUAUGUCUACUUUAUCUUAACAAAGAAAACCUGGUGCUUGCAGUAUAGCUGUAGAAUUUUCUAUGUUCAAGACGUAGCUGCUGGAAUUCUCGGGUGCCAA` — result for “RBNS enrichment (R)”: 0.369.
`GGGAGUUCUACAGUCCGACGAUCAGUAAUAACAAUGGGACUUAGAGGAGGUAAACAUAACUUAUGUGCCUCAAACCAGCUAGUCCUGGACAAGAUGUCUCUUCAGUAUCUCUGCUAUUGGGUUCAGAUGUGUCUGGAAUUCUCGGGUGCCAA` — result for “RBNS enrichment (R)”: 0.307.
Under “RBNS enrichment (R)”, `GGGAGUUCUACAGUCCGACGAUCGUGGGCUUGUUAUUGGGAUGAAGACUGCUGGAAGGGACUCCUUGCUGUUUAUCUACUGCUUUGAGCCCUCCUAAGUUAACCUGUGCCUCAUUUGUAAAACCACCAGCAUCUGGAAUUCUCGGGUGCCAA` is recorded as 0.494.
`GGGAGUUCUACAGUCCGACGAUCGAAAACCUGAUUUUCAUCUCGUACUACCAAGCUUUACAACAUUGAAAGUGGCCUAGUAACUCUGAGUAUUUUAAAGAAUGCUUUAUCAUUUUUUAAAGAUGUCAAGAAACUGGAAUUCUCGGGUGCCAA` — result for “RBNS enrichment (R)”: 0.304.
`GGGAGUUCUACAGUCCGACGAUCACCCCUGUGGAGGGGCUGCUGUGGGCCCUGACCUCCAAGCUCCUGCCUCACCGUCUGCCUUGCUCCUCUCUUCCCAAAUCAUCACCGCCAUGGGCCCAGCCCCAAAGGGCUGGAAUUCUCGGGUGCCAA` — result for “RBNS enrichment (R)”: 0.682.
